Published values of several laboratories.
Lines come from different studies, so protocols differ. ± marks the error that the study gave.
Target: Alpha-glucosidase MAL12 (MAL12, Saccharomyces cerevisiae S288c, UniProt P53341)
UniProt P53341, sequence (whole entry, looked up): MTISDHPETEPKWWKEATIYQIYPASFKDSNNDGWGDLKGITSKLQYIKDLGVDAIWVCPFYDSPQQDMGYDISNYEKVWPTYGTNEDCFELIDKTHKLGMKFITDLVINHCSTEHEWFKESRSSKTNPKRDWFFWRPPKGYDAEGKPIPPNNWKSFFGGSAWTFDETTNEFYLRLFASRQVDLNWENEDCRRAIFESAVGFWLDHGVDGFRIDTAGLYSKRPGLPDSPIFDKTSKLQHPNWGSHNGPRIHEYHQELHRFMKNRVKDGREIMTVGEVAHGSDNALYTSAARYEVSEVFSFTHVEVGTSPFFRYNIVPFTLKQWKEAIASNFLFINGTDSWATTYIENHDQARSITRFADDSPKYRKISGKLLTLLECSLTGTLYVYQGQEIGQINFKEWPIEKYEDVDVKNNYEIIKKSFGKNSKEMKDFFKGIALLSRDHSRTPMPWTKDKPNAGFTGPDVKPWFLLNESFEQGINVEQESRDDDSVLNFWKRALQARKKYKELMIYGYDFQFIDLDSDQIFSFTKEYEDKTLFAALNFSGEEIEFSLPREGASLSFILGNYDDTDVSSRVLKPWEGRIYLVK
Effect on: enzyme activity
Mode: inhibitor

CC(C)(COC(=O)/C=C/c1c(Cl)cccc1Cl)CC1=C(O)C(=O)c2ccccc2C1=O
IC50: 19.3 µM

COc1cc(C(c2c(O)c3ccccc3oc2=O)c2c(O)c3ccccc3oc2=O)ccc1OCc1cn(CC(=O)Nc2ccc(Cl)cc2Cl)nn1
IC50: 6 µM

CC(C)(COC(=O)/C=C/c1ccc(Br)cc1)CC1=C(O)C(=O)c2ccccc2C1=O
IC50: 26.3 µM

COc1cc(C(c2c(O)c3ccccc3oc2=O)c2c(O)c3ccccc3oc2=O)ccc1OCc1cn(CC(=O)Nc2ccccc2Cl)nn1
IC50: 24.3 µM

Cc1nc2ccc(Br)cc2c(=O)n1N
IC50 (Saccharomyces cerevisiae; with: 4-nitrophenyl glucopyranoside): 23.6 ± 1.41 µM

COc1ccc(-c2c(C(F)(F)F)oc3c(Cn4nc(C)cc4C)c(O)ccc3c2=O)cc1
IC50: 21.2 ± 0.66 µM

Cc1nc2ccccc2c(=O)n1N
IC50 (Saccharomyces cerevisiae; with: 4-nitrophenyl glucopyranoside): 59.9 ± 2.12 µM

COc1ccc(-c2c(C(F)(F)F)oc3c(Cn4ccnc4)c(O)ccc3c2=O)cc1
IC50: 20 ± 2 µM

Excerpt of the above:
CC(C)(COC(=O)/C=C/c1c(Cl)cccc1Cl)CC1=C(O)C(=O)c2ccccc2C1=O
IC50: 19.3 µM
